Measured values gathered from unrelated publications.
Each line is one published result; not all experiments were run side by side.
Organism: Acinetobacter baumannii

CCn1c(-c2ccc(-c3ccc(F)cc3)cc2)c(-c2ccc(-c3ccc(F)cc3)cc2)n(CC)c1=[Se] has an MIC of greater than 40 µM (broth microdilution; carbapenem-resistant; 24 h).
With N=C(N)NCCC[C@@H]1NC(=O)[C@@H](CCCNC(=N)N)NC(=O)[C@H](CCCNC(=N)N)NC(=O)[C@@H](C(c2ccccc2)c2ccccc2)NC(=O)[C@@H](C(c2ccccc2)c2ccccc2)NC(=O)[C@@H](C(c2ccccc2)c2ccccc2)NC(=O)[C@@H](CCCNC(=N)N)NC1=O the MIC was 16 µg/mL (NCTC 13304, carbapenem-resistant).
CN[C@@H]1[C@H](O)[C@H](NC)[C@H]2O[C@]3(O)[C@H](O[C@@H]2[C@H]1O)O[C@H](C)C[C@H]3NC(=O)Cc1ccc(Cl)cn1 gave an MIC of greater than 200 µg/mL (microbial growth, broth dilution; ATCC19606).
For CC[C@H](C)[C@H](NC(=O)[C@H](CCCCN)NC(=O)[C@H](CCCCN)NC(=O)[C@H](Cc1ccccc1)NC(=O)[C@H](Cc1ccccc1)NC(=O)[C@H](CCCCN)NC(=O)[C@H](CCCCN)NC(=O)[C@H](Cc1ccccc1)NC(=O)[C@H](CCCNC(=N)N)NC(=O)[C@@H](N)CCCCN)C(=O)N[C@@H](CCCCN)C(=O)N[C@@H](CCCCN)C(=O)N[C@@H](CO)C(=O)N[C@H](C(=O)N[C@@H](CCCCN)C(=O)N[C@@H](CCCCN)C(=O)N[C@@H](CCCNC(=N)N)C(=O)N[C@H](C(=O)N[C@@H](CCCCN)C(=O)N[C@@H](CCCCN)C(=O)N[C@@H](CC(C)C)C(=O)N[C@@H](Cc1ccccc1)C(=O)N[C@@H](CCCCN)C(=O)N[C@@H](CCCCN)C(=O)N1CCC[C@H]1C(=O)N[C@@H](CCCNC(=N)N)C(=O)N[C@H](C(=O)N[C@H](C(=O)N1CCC[C@H]1C(=O)N[C@H](C(=O)N[C@@H](CO)C(=O)N[C@H](C(=O)N1CCC[C@H]1C(=O)N[C@@H](Cc1ccccc1)C(=O)O)[C@@H](C)CC)[C@@H](C)CC)[C@@H](C)CC)C(C)C)C(C)C)C(C)C, the MIC was 4 µg/mL (broth microdilution; A1, clinical isolate, Mueller-Hinton broth; 20 h, 37 °C).
CCCCCCCC(=O)N[C@@H](CCN)C(=O)N[C@H](C(=O)N[C@@H](CCN)C(=O)N[C@H]1CCNC(=O)[C@H]([C@@H](C)O)NC(=O)[C@H](CCN)NC(=O)[C@H](CCN)NC(=O)[C@H](CC(C)C)NC(=O)[C@@H](C)NC(=O)[C@H](CCN)NC1=O)[C@@H](C)O has an MIC of 128 µg/mL (broth microdilution; ATCC 17978; 20 h, 37 °C).
The MIC of CCCCCCCCCCCCCCCCCCn1cc(CN(CCC(=O)NCCN(CCC(=O)NCCN(CCC(=O)NCCN(C)C)CCC(=O)NCCN(C)C)CCC(=O)NCCN(CCC(=O)NCCN(C)C)CCC(=O)NCCN(C)C)CCC(=O)NCCN(CCC(=O)NCCN(CCC(=O)NCCN(C)C)CCC(=O)NCCN(C)C)CCC(=O)NCCN(CCC(=O)NCCN(C)C)CCC(=O)NCCN(C)C)nn1 is reported as 6 µg/mL (ΔlpxC LPS-deficient).
CC[C@H](C)[C@H](NC(=O)[C@@H](CCCNC(=N)N)NC(=O)[C@H](CCCNC(=N)N)NC(=O)[C@@H]1CCCN1C(=O)[C@@H]1CCCN1C(=O)[C@H](CCCNC(=N)N)NC(=O)[C@@H]1CCCN1C(=O)[C@H](CCCNC(=N)N)NC(=O)[C@@H]1CCCN1C(=O)[C@H](CC(C)C)NC(=O)[C@H](Cc1ccc(O)cc1)NC(=O)[C@H](Cc1ccccc1)NC(=O)[C@@H]1CCCN1C(=O)[C@H](CCCCN)NC(=O)[C@H](CC(=O)O)NC(=O)[C@@H](N)C(C)C)C(=O)N[C@@H](Cc1ccc(O)cc1)C(=O)N[C@@H](CC(N)=O)C(=O)N[C@H](CCCNC(=N)N)C(N)=O gave an MIC of 32 µg/mL (broth microdilution; DSM 30008; 18 h, 37 °C, 25% MHB2).
CCCCCCCC(=O)N[C@@H](CCN)C(=O)N[C@H](C(=O)N[C@@H](CCN)C(=O)N[C@H]1CCNC(=O)[C@H]([C@@H](C)O)NC(=O)[C@H](CCN)NC(=O)[C@H](CCN)NC(=O)[C@H](CC(C)C)NC(=O)[C@@H](Cc2cc(F)c(F)c(F)c2)NC(=O)[C@H](CCN)NC1=O)[C@@H](C)O has an MIC of less than 0.125 µg/mL (broth microdilution; ATCC 19606, colistin-susceptible).
The MIC of CC[C@H](C)[C@H](NC(=O)[C@@H](CCCNC(=N)N)NC(=O)[C@H](CCCNC(=N)N)NC(=O)[C@@H]1CCCN1C(=O)[C@@H]1CCCN1C(=O)[C@H](CCCNC(=N)N)NC(=O)[C@@H]1CCCN1C(=O)[C@H](CCCNC(=N)N)NC(=O)[C@@H]1CCCN1C(=O)[C@H](CC(C)C)NC(=O)[C@H](Cc1ccc(O)cc1)NC(=O)[C@@H]1CCCN1C(=O)[C@H](Cc1ccc(O)cc1)NC(=O)[C@H](CCCCN)NC(=O)[C@H](CC(=O)O)NC(=O)[C@@H](N)C(C)C)C(=O)N[C@@H](Cc1ccc(O)cc1)C(=O)N[C@@H](CC(N)=O)C(=O)N[C@H](CCCNC(=N)N)C(N)=O is reported as 32 µg/mL (broth microdilution; DSM 30008; 18 h, 37 °C, 25% MHB2).
CC(C)C[C@@H](NC(=O)[C@@H](CCCNC(=N)N)NC(=O)[C@H](N)CCCNC(=N)N)C(=O)N[C@H](CC(C)C)C(=O)N[C@H](CCCNC(=N)N)C(=O)N[C@H](CCCCN)C(=O)N[C@H](CC(C)C)C(=O)N[C@H](CCCCN)C(=O)NCC(=O)N[C@H](CCCCN)C(=O)N[C@H](CCCCN)C(=O)N[C@H](CC(C)C)C(=O)N[C@H](Cc1ccc(O)cc1)C(=O)N[C@H](CC(C)C)C(=O)N[C@H](Cc1ccc(O)cc1)C(=O)N[C@H](Cc1ccccc1)C(=O)N[C@H](CCCCN)C(=O)N[C@H](CC(C)C)C(=O)N[C@H](CCC(N)=O)C(=O)N[C@H](CC(C)C)C(=O)N[C@H](CC(C)C)C(=O)N[C@H](CCCCN)C(=O)N[C@H](CCCCN)C(N)=O has an MIC of 4 µM (ATCC BAA1605, Mueller-Hinton broth; 24 h).
CCCCCCCC(=O)N[C@@H](CCN)C(=O)N[C@H](C(=O)N[C@@H](CCN)C(=O)N[C@H]1CCNC(=O)[C@H]([C@@H](C)O)NC(=O)[C@H](CCN)NC(=O)[C@H](CCN)NC(=O)[C@H](Cc2ccccc2)NC(=O)[C@@H](CCCCCC)NC(=O)[C@H](CCN)NC1=O)[C@@H](C)O has an MIC of 0.5 to 1 µg/mL (broth microdilution; colistin-resistant isolates).
CC[C@H](C)[C@H](NC(=O)[C@H](C)NC(=O)[C@@H](NC(=O)[C@H](CC(=O)O)NC(=O)[C@H](CCCCN)NC(=O)[C@H](CO)NC(=O)[C@@H](NC(=O)[C@H](CC(N)=O)NC(=O)[C@H](C)NC(=O)[C@@H](NC(=O)[C@H](CCC(=O)O)NC(=O)[C@H](CCCCN)NC(=O)[C@@H](NC(=O)[C@@H](NC(=O)[C@H](Cc1c[nH]cn1)NC(=O)[C@H](CCCCN)NC(=O)[C@@H](NC(=O)[C@H](CCCCN)NC(=O)[C@H](CCCCN)NC(=O)[C@@H](NC(=O)[C@H](CC(C)C)NC(=O)[C@H](CCCCN)NC(=O)[C@H](CC(N)=O)NC(=O)[C@H](Cc1ccccc1)NC(=O)[C@H](CCCNC(=N)N)NC(=O)[C@H](CCCCN)NC(=O)[C@H](CCCNC(=N)N)NC(=O)[C@H](Cc1ccccc1)NC(=O)CN)C(C)C)C(C)C)[C@@H](C)O)[C@@H](C)CC)[C@@H](C)O)C(C)C)C(C)C)C(=O)N[C@H](C(=O)N[C@@H](C)C(=O)NCC(=O)N[C@@H](CO)C(=O)NCC(=O)N[C@H](C(=O)N[C@@H](C)C(=O)N[C@H](C(=O)NCC(=O)N[C@@H](C)C(=O)N[C@@H](C)C(=O)N[C@@H](CCSC)C(N)=O)C(C)C)C(C)C)C(C)C gave an MIC of 0.03 µg/mL (broth microdilution; RKI 19/09, CAMHB with 10% mouse serum).
With CCCCCCCC(=O)N[C@@H](CCN)C(=O)N[C@H](C(=O)N[C@@H](CCN)C(=O)N[C@H]1CCNC(=O)[C@H]([C@@H](C)O)NC(=O)[C@H](CCN)NC(=O)[C@H](CCN)NC(=O)[C@H](C)NC(=O)[C@@H](Cc2ccccc2)NC(=O)[C@H](CCN)NC1=O)[C@@H](C)O the MIC was 2 µg/mL (CLSI broth microdilution; 5075, CAMHB; 20 h, 37 °C).
CC[C@H](C)[C@H](NC(=O)[C@@H](CCCNC(=N)N)NC(=O)[C@H](CCCNC(=N)N)NC(=O)[C@H](C)NC(=O)[C@H](Cc1c[nH]c2ccccc12)NC(=O)[C@H](CCCNC(=N)N)NC(=O)[C@@H]1CCCN1C(=O)[C@H](CCCNC(=N)N)NC(=O)[C@@H]1CCCN1C(=O)[C@H](CC(C)C)NC(=O)[C@H](Cc1ccc(O)cc1)NC(=O)[C@@H]1CCCN1C(=O)[C@@H]1CCCN1C(=O)[C@H](CCCCN)NC(=O)[C@H](CC(=O)O)NC(=O)[C@@H](N)C(C)C)C(=O)N[C@@H](Cc1ccc(O)cc1)C(=O)N[C@@H](CC(N)=O)C(=O)N[C@H](CCCNC(=N)N)C(N)=O gave an MIC of 32 µg/mL (broth microdilution; DSM 30008; 18 h, 37 °C, 25% MHB2).
The MIC of O=[N+]([O-])c1cc(Cl)c2cccnc2c1O is reported as 4 µg/mL (broth microdilution; carbapenem-resistant clinical isolate).
For C#CCOc1ccc(CN[C@@]2(C)C[C@H](O[C@H]3[C@H](Oc4c5cc6cc4Oc4ccc(cc4Cl)[C@@H](O)[C@@H](NC(=O)[C@@H](CC(C)C)NC)C(=O)N[C@@H](CC(N)=O)C(=O)N[C@H]6C(=O)N[C@H]4C(=O)N[C@H](C(=O)N[C@H](C(=O)NCC(N)=O)c6cc(O)cc(O)c6-c6cc4ccc6O)[C@H](O)c4ccc(c(Cl)c4)O5)O[C@H](CO)[C@@H](O)[C@@H]3O)O[C@@H](C)[C@H]2O)cc1OC, the MIC was 76 µM (broth microdilution; BAA-747).
The MIC of CC[C@H](C)[C@H](NC(=O)[C@@H](CCCNC(=N)N)NC(=O)[C@H](CCCNC(=N)N)NC(=O)CNC(=O)[C@H](Cc1c[nH]c2ccccc12)NC(=O)[C@H](CCCNC(=N)N)NC(=O)[C@@H]1CCCN1C(=O)[C@H](CCCNC(=N)N)NC(=O)[C@@H]1CCCN1C(=O)[C@H](CC(C)C)NC(=O)[C@H](Cc1ccc(O)cc1)NC(=O)[C@@H]1CCCN1C(=O)[C@@H]1CCCN1C(=O)[C@H](CCCCN)NC(=O)[C@H](CC(=O)O)NC(=O)[C@@H](N)C(C)C)C(=O)N[C@@H](Cc1ccc(O)cc1)C(=O)N[C@@H](CC(N)=O)C(=O)N[C@H](CCCNC(=N)N)C(N)=O is reported as 16 µg/mL (broth microdilution; DSM 30008; 18 h, 37 °C, 25% MHB2).
With CCCCCCCC(=O)N[C@@H](CCN)C(=O)N[C@@H](C)C(=O)N[C@@H](CCN)C(=O)N[C@H]1CCNC(=O)[C@H]([C@@H](C)O)NC(=O)[C@H](CCN)NC(=O)[C@H](CCN)NC(=O)[C@H](CC(C)C)NC(=O)[C@@H](Cc2ccccc2)NC(=O)[C@H](CCN)NC1=O the MIC was greater than 512 µg/mL (CLSI broth microdilution; 246-01-C.246, CAMHB; 20 h, 37 °C).
With CC(=O)N[C@H](Cc1c(F)c(F)c(F)c(F)c1F)C(=O)N[C@@H](CCN)C(=O)N[C@H](C(=O)N[C@@H](CCN)C(=O)N[C@H]1CCNC(=O)[C@H]([C@@H](C)O)NC(=O)[C@H](CCN)NC(=O)[C@H](CCN)NC(=O)[C@H](CC(C)C)NC(=O)[C@@H](Cc2ccccc2)NC(=O)[C@H](CCN)NC1=O)[C@@H](C)O the MIC was 8 to 16 µg/mL (broth microdilution; colistin-resistant isolates).

Repeated from above:
For C#CCOc1ccc(CN[C@@]2(C)C[C@H](O[C@H]3[C@H](Oc4c5cc6cc4Oc4ccc(cc4Cl)[C@@H](O)[C@@H](NC(=O)[C@@H](CC(C)C)NC)C(=O)N[C@@H](CC(N)=O)C(=O)N[C@H]6C(=O)N[C@H]4C(=O)N[C@H](C(=O)N[C@H](C(=O)NCC(N)=O)c6cc(O)cc(O)c6-c6cc4ccc6O)[C@H](O)c4ccc(c(Cl)c4)O5)O[C@H](CO)[C@@H](O)[C@@H]3O)O[C@@H](C)[C@H]2O)cc1OC, the MIC was 76 µM (broth microdilution; BAA-747).
